Measurements from different studies.
Each line is one published result; not all experiments were run side by side. Values joined by “and” are separate records of one study, mostly repeats; a detail may differ.
Target: Activin receptor type-1 (ACVR1, Homo sapiens, UniProt Q04771)

`O=C(Cc1ccc(OCc2ccccc2)cc1)NC1(C(=O)O)CCN(C(=O)c2ccc(-c3cccc(Cl)c3)cc2)CC1`: “activity vs control” 115% (enzyme activity, inhibitor; 10 µM).
`C=CC(=O)N1CCc2ccc(-n3c(=O)ccc4cnc5ccc(-c6cnn(C)c6)cc5c43)cc21` gave a remaining binding of 99% (KINOMEscan; 1 µM; reference: DMSO control).
`Cc1ccc(-c2c(/C=C(\C#N)C(=O)NC(C)C)n(CCCO)c3ncnc(N)c23)cc1` has a remaining binding of 47% (cell-free assay, competition with immobilised ligand; 1 µM).
For `COCC12C(=O)NC3C4(C(OC)CC1O)C1CC5(O)C(OC)C(O)C(OC(C)=O)(C1C5OC(=O)c1ccccc1)C3(O)C(OC)C24` (stereo not drawn), the remaining activity was 94% and 105% (kinase activity, inhibitor, ProQinase kinase profiling; 25 µM; reference: control).
`CNC(=O)C[C@H](Cc1ccc(C#N)cc1)NC(=O)c1cc(-c2ccc(CN[C@H](C)c3ccc(C)cc3)o2)ccc1Cl`: “activity vs control” 96% (enzyme activity, inhibitor; 1 µM).
`NC(=O)[C@@H](O)C[C@H]1CCc2sc3ncnc(O[C@H]4CC[C@H](N5CCOCC5)CC4)c3c21` gave an inhibition of 1% (enzyme activity, inhibitor; 10 µM).
With `CCN1CCN(Cc2ccc(C(=O)Nc3ccc(C)c(NCc4cnc5[nH]ccc5c4OC)c3)cc2C(F)(F)F)CC1` the remaining binding was 100% (binding, competition with immobilised ligand; 1 µM).
With `CC(C)=CC1OC(C)(C)C2C=C3C(=O)C(Cl)=CC(O)C3C3C(O)C4OC4C(=O)C132` (stereo not drawn) the remaining binding was 84% (cell-free assay, competition with immobilised ligand; 10 µM).
`COc1cc(Nc2nccc(-c3cnn4nc(OC)ccc34)n2)cc(C(F)(F)F)c1` gave a remaining binding of 97% (binding, competition with immobilised ligand; 1 µM).
`C=CC(=O)N1Cc2nc(-c3cc(-c4cc(Cl)cnc4Cl)c(F)cc3F)n(-c3ccncn3)c2C1` has an inhibition of 2.1% (cell-free assay; 1 µM).
The remaining binding of `Nc1ncc2c(n1)-c1c([nH]c3ccc(C4=CCOCC4)cc13)CCC2` is reported as 100% (binding, competition with immobilised ligand; 1 µM).
The inhibition of `NC(=O)C[C@H]1CCc2sc3ncnc(O[C@H]4CC[C@H](N5CCOCC5)CC4)c3c21` is reported as -1% (enzyme activity, inhibitor; 10 µM).
For `N[C@H]1CC[C@H](Nc2nccc(-c3cccnc3Oc3ccc(NC(=O)NC4CC4)c4ccccc34)n2)CC1`, “log2 LFQ intensity” read 25.4 and 25.6 and 25.3 (kinobead competition pulldown; HEK293/HCT116 lysate mixture; 10 µM, 1 h, 4 °C; lower = stronger competition).
For `COc1c(Cl)cccc1Nc1c(-c2ccncc2C#C[C@@]2(C)CCCN2C(=O)/C=C/CN(C)C)[nH]c2c1C(=O)NCC2`, the remaining binding was 100% (cell-free assay, competition with immobilised ligand; 3 µM).
With `CN1CC[C@@H](COc2cnc(C#N)cc2-c2ccn3nc(NC(=O)C4CC4)cc3c2)C1` the inhibition was 7% (enzyme activity, inhibitor; 1 µM).
The remaining binding of `C=CC(=O)N1CCCC(n2c(=O)c3ncccc3n(Cc3ccc(Oc4ccccc4)cc3)c2=O)C1` (stereo not drawn) is reported as 87% (cell-free assay, competition with immobilised ligand; 1 µM).
For `CNC1C[S+]2CC[S+]3CC[S+](C1)[Ru-4]321([N]=C=S)[n]2c3ccc(OC)cc3c3c4c(c5cc(F)c[n+]1c5c32)C(=O)NC4=O` (stereo not drawn), the remaining binding was 100% (KinomeScan; 0.1 µM; reference: untreated).
`Nc1ncc(-c2cc(-c3cnn(CC(F)(F)F)c3)ncc2F)nc1C(=O)NC1CNCC(F)C1` (stereo not drawn) gave a remaining activity of 109% (enzyme activity; 1 µM; reference: DMSO control).
For `Cc1cnc2nc1Nc1cccc(c1)COC/C=C/COCc1cc(ccc1OCCN1CCOCC1)N2`, the remaining binding was 85% (binding; 0.1 µM).
`CNC(=O)C1CCN(c2cc(C)c(F)cc2NC(=O)c2ccc(-c3cc(O)ccc3C)c(C)c2)CC1` gave a remaining binding of 100% (binding, competition with immobilised ligand; 1 µM).
With `CN1CCN(Cc2ccc(-c3ccc(CO[C@H]4CCC[C@@H]4NC(=O)c4cc(-c5cnn(C)c5)cnc4N)cc3)cc2)CC1` the inhibition was -5% (enzyme activity, inhibitor; 0.1 µM).

Some of these lines once more:
With `CN1CC[C@@H](COc2cnc(C#N)cc2-c2ccn3nc(NC(=O)C4CC4)cc3c2)C1` the inhibition was 7% (enzyme activity, inhibitor; 1 µM).
The remaining binding of `Nc1ncc2c(n1)-c1c([nH]c3ccc(C4=CCOCC4)cc13)CCC2` is reported as 100% (binding, competition with immobilised ligand; 1 µM).
